Published values gathered from unrelated publications.
± marks the error that the study gave.
U2AF2: U2AF2 148-342 (Homo sapiens, UniProt P26368)
UniProt P26368, sequence (whole entry, looked up): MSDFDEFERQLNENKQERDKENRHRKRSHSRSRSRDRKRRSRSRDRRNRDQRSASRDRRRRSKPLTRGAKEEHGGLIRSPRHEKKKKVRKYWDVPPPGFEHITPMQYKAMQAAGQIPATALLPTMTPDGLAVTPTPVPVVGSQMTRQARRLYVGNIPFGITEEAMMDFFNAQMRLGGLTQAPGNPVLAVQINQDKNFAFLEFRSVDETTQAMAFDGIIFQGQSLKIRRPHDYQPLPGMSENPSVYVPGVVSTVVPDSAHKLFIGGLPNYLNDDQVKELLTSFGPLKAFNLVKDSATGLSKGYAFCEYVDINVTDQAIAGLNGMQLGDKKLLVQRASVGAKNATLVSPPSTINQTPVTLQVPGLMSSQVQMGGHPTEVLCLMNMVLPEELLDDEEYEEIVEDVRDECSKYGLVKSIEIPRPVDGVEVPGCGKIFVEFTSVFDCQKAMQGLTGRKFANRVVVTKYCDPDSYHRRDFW
B1: Ras suppressor protein 1 (human); sequence looked up; chain SKSLKKLVEESREKNQPEVDMSDRGISNMLDVNGLFTLSHITQLVLSHNKLTMVPPNIAELKNLEVLNFFNNQIEELPTQISSLQKLKHLNLGMNRLNTLPRGFGSLPALEVLDLTYNNLSENSLPGNFFYLTTLRALYLSDNDFEILPPDIGKLTKLQILSLRDNDLISLPKEIGELTQLKELHIQGNRLTVLPPELGNLDLTGQKQVFKAENNPWVTPIADQFQLGVSHVFEYIRSETYKYLYGRHMQANPEPPKKNNDKSKKISRKPLAAKNR
B2: human ADP/ATP translocase 4; sequence looked up; chain MHREPAKKKAEKRLFDASSFGKDLLAGGVAAAVSKTAVAPIERVKLLLQVQASSKQISPEARYKGMVDCLVRIPREQGFFSFWRGNLANVIRYFPTQALNFAFKDKYKQLFMSGVNKEKQFWRWFLANLASGGAAGATSLCVVYPLDFARTRLGVDIGKGPEERQFKGLGDCIMKIAKSDGIAGLYQGFGVSVQGIIVYRASYFGAYDTVKGLLPKPKKTPFLVSFFIAQVVTTCSGILSYPFDTVRRRMMMQSGEAKRQYKGTLDCFVKIYQHEGISSFFRGAFSNVLRGTGGALVLVLYDKIKEFFHIDIGGR
B3: human erbin; sequence looked up; chain MTTKRSLFVRLVPCRCLRGEEETVTTLDYSHCSLEQVPKEIFTFEKTLEELYLDANQIEELPKQLFNCQSLHKLSLPDNDLTTLPASIANLINLRELDVSKNGIQEFPENIKNCKVLTIVEASVNPISKLPDGFSQLLNLTQLYLNDAFLEFLPANFGRLTKLQILELRENQLKMLPKTMNRLTQLERLDLGSNEFTEVPEVLEQLSGLKEFWMDANRLTFIPGFIGSLKQLTYLDVSKNNIEMVEEGISTCENLQDLLLSSNSLQQLPETIGSLKNITTLKIDENQLMYLPDSIGGLISVEELDCSFNEVEALPSSIGQLTNLRTFAADHNYLQQLPPEIGSWKNITVLFLHSNKLETLPEEMGDMQKLKVINLSDNRLKNLPFSFTKLQQLTAMWLSDNQSKPLIPLQKETDSETQKMVLTNYMFPQQPRTEDVMFISDNESFNPSLWEEQRKQRAQVAFECDEDKDEREAPPREGNLKRYPTPYPDELKNMVKTVQTIVHRLKDEETNEDSGRDLKPHEDQQDINKDVGVKTSESTTTVKSKVDEREKYMIGNSVQKISEPEAEISPGSLPVTANMKASENLKHIVNHDDVFEESEELSSDEEMKMAEMRPPLIETSINQPKVVALSNNKKDDTKETDSLSDEVTHNSNQNNSNCSSPSRMSDSVSLNTDSSQDTSLCSPVKQTHIDINSKIRQEDENFNSLLQNGDILNSSTEEKFKAHDKKDFNLPEYDLNVEERLVLIEKSVDSTATADDTHKLDHINMNLNKLITNDTFQPEIMERSKTQDIVLGTSFLSINSKEETEHLENGNKYPNLESVNKVNGHSEETSQSPNRTEPHDSDCSVDLGISKSTEDLSPQKSGPVGSVVKSHSITNMEIGGLKIYDILSDNGPQQPSTTVKITSAVDGKNIVRSKSATLLYDQPLQVFTGSSSSSDLISGTKAIFKFDSNHNPEEPNIIRGPTSGPQSAPQIYGPPQYNIQYSSSAAVKDTLWHSKQNPQIDHASFPPQLLPRSESTENQSYAKHSANMNFSNHNNVRANTAYHLHQRLGPARHGEMWAISPNDRLIPAVTRSTIQRQSSVSSTASVNLGDPGSTRRAQIPEGDYLSYREFHSAGRTPPMMPGSQRPLSARTYSIDGPNASRPQSARPSINEIPERTMSVSDFNYSRTSPSKRPNARVGSEHSLLDPPGKSKVPRDWREQVLRHIEAKKLEKKHPQTSSSGDPCQDGIFISGQQNYSSATLSHKDVPPDSLMKMPLSNGQMGQPLRPQANYSQIHHPPQASVARHPSREQLIDYLMLKVAHQPPYTQPHCSPRQGHELAKQEIRVRVEKDPELGFSISGGVGGRGNPFRPDDDGIFVTRVQPEGPASKLLQPGDKIIQANGYSFINIEHGQAVSLLKTFQNTVELIIVREVSS
B4: PRPF19 (human); sequence looked up; chain SLICSISNEVPEHPCVSPVSNHVYERRLIEKYIAENGTDPINNQPLSEEQLIDIKVAHPIRPKPPSATSIPAILKALQDEWDAVMLHSFTLRQQLQTTRQELSHALYQHDAACRVIARLTKEVTAAREALATLKPQAGLIVPQAVPSSQPSVVGAGEPMDLGELVGMTPEIIQKLQDKATVLTTERKKRGKTVPEELVKPEELSKYRQVASHVGLHSASIPGILALDLCPSDTNKILTGGADKNVVVFDKSSEQILATLKGHTKKVTSVVFHPSQDLVFSASPDATIRIWSVPNASCVQVVRAHESAVTGLSLHATGDYLLSSSDDQYWAFSDIQTGRVLTKVTDETSGCSLTCAQFHPDGLIFGTGTMDSQIKIWDLKERTNVANFPGHSGPITSIAFSENGYYLATAADDSSVKLWDLRKLKNFKTLQLDNNFEVKSLIFDQSGTYLALGGTDVQIYICKQWTEILHFTEHSGLTTGVAFGHHAKFIASTGMDRSLKFYSL

| Substance | tested on | test | system | setting | scale | endpoint | value |
| --- | --- | --- | --- | --- | --- | --- | --- |
| B1 (Ras suppressor protein 1) | CYB5R4 knockout human cells | PP4 interaction, 3xFLAG-PP4C IP-MS |  | concentration not given | relative to: CYB5R4 KO over parental | log2 fold change | -1.29 |
| YLEIFQHSY | Jurkat expressing engineered TCR | NFAT-eGFP reporter, fluorescence microscopy | peptide | concentration not given, HLA-A*01:01 on EL4 cells |  | GFP-positive cells | 0.461% |
| B2 (human ADP/ATP translocase 4) | CYB5R4 knockout human cells | PP4 interaction, 3xFLAG-PP4C IP-MS |  | concentration not given | relative to: CYB5R4 KO over parental | log2 fold change | -0.79 |
| EVDPVGLLF | Jurkat expressing engineered TCR | NFAT-eGFP reporter, fluorescence microscopy | peptide | concentration not given, HLA-A*01:01 on EL4 cells |  | GFP-positive cells | 0.956% |
| Peginesatide | UT7/EPO | tyrosine phosphorylation, LC-MS/MS phosphoproteomics, GluC, item: FRS2 tyrosine 195 |  | 10 nM, 15 min, added: 10 U/mL EPO | relative to: vehicle | phosphorylation level | 4.3 fold |
| methyl-β-cyclodextrin | HMC3 | endocytosis, flow cytometry |  | 5 mM, 2 h pretreatment then 3 h, added: FITC-PS 0.2 mg/mL |  | reduction of PS-positive cells | 8.2% |
| MTVCNASQRQAHAQATAVSL | SW480 | phage binding | peptide |  | relative to: targeting over control phage | selectivity ratio | 3.5 ± 0.75 |
| QVDPIGLDF | Jurkat expressing engineered TCR | NFAT-eGFP reporter, fluorescence microscopy | peptide | concentration not given, HLA-A*01:01 on EL4 cells |  | GFP-positive cells | 0.429% |
| AUAGUUUAU (ssRNA) | U2AF2 | sequencing of bound RNA | RNA | motif only |  | Kd | 4.22 µM |
| epoetin alfa | UT7/EPO | microarray, item: KLF6 (probe 208960_s_at) |  | 5 U/mL, 90 min, added: SCF 10 nM | relative to: vehicle | mRNA level | 6.9 fold |
| EVDPIGFDF | Jurkat expressing engineered TCR | NFAT-eGFP reporter, fluorescence microscopy | peptide | concentration not given, HLA-A*01:01 on EL4 cells |  | GFP-positive cells | 0.421% |
| B3 (human erbin) | CYB5R4 knockout human cells | PP4 interaction, 3xFLAG-PP4C IP-MS |  | concentration not given | relative to: CYB5R4 KO over parental | log2 fold change | 0.63 |
| ELEPIYLGF | Jurkat expressing engineered TCR | NFAT-eGFP reporter, fluorescence microscopy | peptide | concentration not given, HLA-A*01:01 on EL4 cells |  | GFP-positive cells | 0.418% |
| B4 (PRPF19) | CYB5R4 knockout human cells | PP4 interaction, 3xFLAG-PP4C IP-MS |  | concentration not given | relative to: CYB5R4 KO over parental | log2 fold change | 0.35 |
| evodiamine | HEL | cell proliferation |  |  |  | IC50 | 1.61 ± 0.16 µM |
| PSMD2 (human) | CYB5R4 knockout human cells | PP4 interaction, 3xFLAG-PP4C IP-MS |  | concentration not given | relative to: CYB5R4 KO over parental | log2 fold change | -0.16 |
| UUGGUUCUU (ssRNA) | U2AF2 | sequencing of bound RNA | RNA | motif only |  | Kd | 0.12 µM |

Excerpt of the above:
| Substance | tested on | test | system | setting | scale | endpoint | value |
| --- | --- | --- | --- | --- | --- | --- | --- |
| Peginesatide | UT7/EPO | tyrosine phosphorylation, LC-MS/MS phosphoproteomics, GluC, item: FRS2 tyrosine 195 |  | 10 nM, 15 min, added: 10 U/mL EPO | relative to: vehicle | phosphorylation level | 4.3 fold |
| methyl-β-cyclodextrin | HMC3 | endocytosis, flow cytometry |  | 5 mM, 2 h pretreatment then 3 h, added: FITC-PS 0.2 mg/mL |  | reduction of PS-positive cells | 8.2% |
